Published values of several laboratories.
Every numbered part comes from another study and shows a few of its results, in no order. Positions count from the first letter of the parent shown.

Series 1
Target: TAR DNA-binding protein 43, full length, His tag (TARDBP, Homo sapiens, UniProt Q13148, residues 1-414)
Method: RNA Bind-n-Seq
Form: RNA
Matrix: in vitro
Tested at: 20 nM
Notes: 6-mer, flanks averaged, single round
With: 150 mM LiCl
Baseline: input library
Direction: higher = stronger binding
Endpoint: 6-mer enrichment (R)
CGAUGC: 0.868
CCACAG: 0.903
CCGGUA: 0.91
CAAGUA: 0.886
ACGUGU: 1.12
GAAAGC: 0.837
CGUGAA: 0.927
ACUUCG: 0.807
CUCUCU: 0.942
GGACUG: 1.19
AAGCUG: 0.887
CCGUAA: 0.852
UAAGAU: 0.861
AAGCGC: 0.908
AAUUGC: 0.914
GUGGUC: 1.11
CCGAUA: 0.835
CAUCUC: 0.839
UAUAAG: 0.972
AGAACU: 1.01
AAUUGG: 1.02

Series 2
Target: Interferon regulatory factor 3, full length, phosphomimetic (IRF3, Homo sapiens, UniProt Q14653, residues 1-427, S386D/S396D/S398D/S402D/T404D/S405D)
Method: protein-binding microarray
Form: double-stranded DNA, one strand shown
Matrix: in vitro
Tested at: 2540 nM top
Notes: 60-bp whole probe
With: salmon DNA 0.4 mg/ml
Baseline: random background probes
Direction: higher = stronger binding
Endpoint: fitted relative affinity
Constant ends, left off below: GCCTAGCAC … GTCTTGATTCGCTTGACGCTGCTG
Target sequence (chain): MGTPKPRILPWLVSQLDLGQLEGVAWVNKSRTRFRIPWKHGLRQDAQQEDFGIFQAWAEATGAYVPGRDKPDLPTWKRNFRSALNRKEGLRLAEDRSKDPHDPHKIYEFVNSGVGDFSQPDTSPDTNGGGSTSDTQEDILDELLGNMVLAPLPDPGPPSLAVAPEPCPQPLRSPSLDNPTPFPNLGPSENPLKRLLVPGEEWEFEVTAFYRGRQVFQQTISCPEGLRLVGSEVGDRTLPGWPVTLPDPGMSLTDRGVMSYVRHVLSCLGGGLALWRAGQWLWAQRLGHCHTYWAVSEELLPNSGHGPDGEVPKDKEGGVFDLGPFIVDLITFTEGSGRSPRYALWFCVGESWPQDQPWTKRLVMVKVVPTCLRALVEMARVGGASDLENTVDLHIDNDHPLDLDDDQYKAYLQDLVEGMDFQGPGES
CCACTTTTATTTTCAGTATTGTGCTAG: 2.97 z-score
TTAGATTTCGTGACTGGATTAGTGCTA: 0.322 z-score
GACGGTTTCGACCTTCGGGACGTGCTA: 3.56 z-score
TTAGGTTTCCGTTTCGGTTAGTGCTAG: 10.6 z-score
TTAGGTATCCTTTTCGTTTAGTGCTAG: 8.4 z-score
GACGGTATCGGGACTAGGGACGTGCTA: 1.78 z-score
GACGAATTGGGGTATCGAGACGTGCTA: -0.142 z-score
GACGGACTGCTTATCCTGTCGTGCTAG: 0.0795 z-score
TTAGAATTCAGTTCCGATTAGTGCTAG: 2.44 z-score
GACGGAATCCTTATCCTGACGTGCTAG: 2.24 z-score
TTAGGTCTCGGACTGGGTTAGTGCTAG: -0.245 z-score
TTAGATATCAGATTCGATTAGTGCTAG: 2.74 z-score
TTTGGTTTCGGGACTGGGTTAGTGCTA: 5.12 z-score

Series 3
Target: CCND3, cyclin fold, Cln2 fusion (human)
Method: yeast growth competition, sequencing
Matrix: yeast
Notes: weak parent motif
Baseline: not given
Direction: higher = stronger binding
Endpoint: normalised enrichment score
Starting sequence: RBL2 docking peptide (human); STTRRRLFVENDS; partner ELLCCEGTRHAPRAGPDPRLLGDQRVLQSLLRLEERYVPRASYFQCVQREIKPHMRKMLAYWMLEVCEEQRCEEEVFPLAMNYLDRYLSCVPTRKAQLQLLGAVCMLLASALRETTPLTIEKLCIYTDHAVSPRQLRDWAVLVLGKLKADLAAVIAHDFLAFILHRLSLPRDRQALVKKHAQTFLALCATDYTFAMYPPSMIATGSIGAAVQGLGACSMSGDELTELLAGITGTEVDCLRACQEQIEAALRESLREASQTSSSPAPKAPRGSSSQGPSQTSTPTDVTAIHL
F8Q: 0.188
S1M: 0.111
D12P: 0.136
R6P: 0.0576
D12H: 0.144
E10N: 0.14
S13D: 0.169
R4P: 0.152
S13C: 0.129
R4F: 0.171
N11C: 0.161
V9I: 0.0666
T3M: 0.0753
S13V: 0.127
D12S: 0.0859
E10G: 0.0914
E10P: 0.193
D12L: 0.0158

Series 4
Target: ABI1, truncated, D143A, DHFR fusion (Arabidopsis thaliana)
Method: DHFR PCA, deep sequencing
Matrix: yeast
Notes: methotrexate growth selection, single substitutions
With: (+)-ABA 17 µM
Baseline: wild-type fitted maximum
Direction: higher = stronger binding
Endpoint: relative binding score
Starting sequence: PYL1, truncated, DHFR fusion (Arabidopsis thaliana); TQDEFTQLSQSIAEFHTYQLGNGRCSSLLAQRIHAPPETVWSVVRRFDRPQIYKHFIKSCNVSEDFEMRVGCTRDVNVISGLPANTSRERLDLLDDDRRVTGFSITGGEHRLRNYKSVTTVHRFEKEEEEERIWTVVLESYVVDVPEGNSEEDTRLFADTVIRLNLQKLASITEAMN; partner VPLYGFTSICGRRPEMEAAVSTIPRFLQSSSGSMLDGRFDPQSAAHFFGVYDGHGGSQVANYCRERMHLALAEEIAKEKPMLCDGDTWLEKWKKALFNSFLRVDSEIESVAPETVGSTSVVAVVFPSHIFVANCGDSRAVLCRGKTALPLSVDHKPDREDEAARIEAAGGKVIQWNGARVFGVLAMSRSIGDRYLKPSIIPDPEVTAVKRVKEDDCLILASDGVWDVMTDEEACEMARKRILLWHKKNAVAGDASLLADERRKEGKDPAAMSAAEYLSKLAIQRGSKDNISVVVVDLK
Y141Q: -12.2%
V62M: 69.4%
V100A: 87.6%
E152N: 74.6%
S80A: 13.4%
K116E: 21.8%
S87F: 5.55%
T73H: 81.1%
I172Y: 82.7%
I79P: -10.5%
T154Q: -3.38%
E174W: 14.2%
S150P: 4.7%
G71L: -4.11%

Series 5
Target: TATA-box-binding protein 1 (TBP1, Arabidopsis thaliana, UniProt P28147, residues 1-200, full length assumed)
Method: protein-binding microarray
Form: double-stranded DNA, one strand shown
Matrix: in vitro
Tested at: not given
Notes: k-mer, scored over probes, only values ≥0.25
Direction: higher = stronger binding
Endpoint: E-score
Residues (chain): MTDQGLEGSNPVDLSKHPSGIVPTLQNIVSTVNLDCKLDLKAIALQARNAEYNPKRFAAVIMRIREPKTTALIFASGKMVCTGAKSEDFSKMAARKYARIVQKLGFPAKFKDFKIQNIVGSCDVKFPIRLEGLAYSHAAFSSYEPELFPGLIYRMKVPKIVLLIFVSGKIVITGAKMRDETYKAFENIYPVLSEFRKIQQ
ATAAAAT: 0.435
ACTTTAA: 0.369
CCCTATA: 0.31
ATTATAC: 0.394
ATCCTTA: 0.281
GATTTAA: 0.395
TTAATAA: 0.413
AACTATA: 0.368
AATTTAA: 0.445
CGTTTTA: 0.307
AAATTAG: 0.252
ATAAGTA: 0.372
AAGTTAT: 0.265
ATATTAA: 0.443
AAATAAT: 0.34
CTTAAAG: 0.287
GCTATAA: 0.343
CGTAATA: 0.254
TATCATA: 0.336
TTAAAAA: 0.436

Series 6
Target: ATF1, bZIP domain (human)
Method: DHFR protein complementation
Matrix: yeast
Notes: single substitutions, most at no-binding floor
Baseline: wild-type JUN-FOS pair
Direction: higher = stronger binding
Endpoint: binding fitness
Starting sequence: JUN, bZIP domain (human); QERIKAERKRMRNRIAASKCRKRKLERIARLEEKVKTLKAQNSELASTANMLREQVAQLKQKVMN; partner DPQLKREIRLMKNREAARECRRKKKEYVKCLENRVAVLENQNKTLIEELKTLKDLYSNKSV
A57G: -1.5 natural log
N42E: -1.54 natural log
E32D: -1.5 natural log
L38Q: -1.45 natural log
L45C: -1.49 natural log
S47W: -1.5 natural log
E54T: -1.56 natural log
N42K: -1.48 natural log
A40S: -1.44 natural log
E54C: -1.48 natural log
A46D: -1.35 natural log
E44I: -1.48 natural log
L59P: -1.49 natural log
L59S: -1.51 natural log
A46V: -1.45 natural log
S47A: -1.48 natural log
S43H: -1.57 natural log

Mixed results
MCM3 (Homo sapiens, UniProt P25205)
cross-linked residues (MCM7 (Homo sapiens, UniProt P33993); cross-linking MS; cell fractions; with: DSSO): K435 to K236

PhoQ, residues 284 288 289 292 302 303 ASTSDA
fold induction (PhoP, residues 12 14 15 18 19 NMSFL (Escherichia coli, UniProt P23836); Sort-seq, item: YFP reporter; E. coli; PhoQ-PhoP variant library, with: 10 µM Mg2+; baseline: high Mg2+ state, higher = stronger signaling): 16.6

DRG2 (Homo sapiens, UniProt P55039)
interaction screen (RWDD1 (Homo sapiens, UniProt Q9H446); cross-linking MS; hits only): cross-linked

ACAD9 (Homo sapiens, UniProt Q9H845)
cross-linked residues (NDUFAF1 (Homo sapiens, UniProt Q9Y375); cross-linking MS; cell fractions; with: DSSO): K608 to K253

MTA1 (Homo sapiens, UniProt Q13330)
cross-linked residues (DYNC1H1 (Homo sapiens, UniProt Q14204); cross-linking MS; cell fractions; with: DSSO): K678 to T3769

Repeated from above (series 3):
D12P: 0.136
R6P: 0.0576
D12H: 0.144
E10N: 0.14
S13D: 0.169
R4P: 0.152
S13C: 0.129
R4F: 0.171
N11C: 0.161
V9I: 0.0666
T3M: 0.0753
S13V: 0.127
D12S: 0.0859
E10G: 0.0914
E10P: 0.193
